Published values collected from several papers.
Lines come from different studies, so protocols differ.

CC(C)n1c(Nc2cccnc2)nc2cnc(Nc3ccc(N4CCN(C)CC4)cc3)nc21 — subjects with TEAE (item: aspartate aminotransferase increased; healthy human, male; oral, dose not given, CTCAE grade 1-3): 11.9%
CNC(=O)c1ccc(-c2cnc3ncc(Cc4ccc5ncccc5c4)n3n2)cc1F — subjects with adverse event (healthy human subjects; oral, 400 mg, Dizziness, grade 3, all causality, with: rifampicin 600 mg/day): 0%
Cc1cc(Nc2cc3ncccc3c(N[C@@H]3C[C@H]4CC[C@@H](C3)N4CCC#N)n2)n[nH]1 — subjects with epistaxis (healthy human; oral, 300 mg multiple doses, 14 days): 0%
CC(C)(C(=O)N1CCOc2c(C#N)cncc2C1)C(F)F — subjects with adverse event (item: conjunctival hyperaemia; human; oral, 10 mg once daily, 14 days, multiple ascending dose): 0%
CN1CCN(c2cccc3c2CCN(C(=O)/C=C/c2c(-n4cnnn4)ccc(Cl)c2F)[C@@H]3C(=O)Nc2ccc(C(=O)O)cc2)C(=O)C1 — subjects with serious adverse event (healthy human subjects; intravenous infusion, 20 mg/h, 5 days): 0%
Cc1cc(-c2nccc3c2ccn3CC(=O)Nc2ccc(-c3cnccn3)cn2)ccn1 — subjects with Headache adverse event (human; 20 mg once daily, multiple ascending dose): 33.3%
C[C@H]1CN(C(=O)CC#N)[C@]12CCN(c1ncnc3[nH]ccc13)C2 — subjects with Headache (healthy human; oral, 1.5 mg, single dose): 12.5%
C[C@@H](Oc1ccc(S(C)(=O)=O)cc1C(=O)N1C[C@@H]2C[C@]2(c2cc(C(F)(F)F)on2)C1)C(F)(F)F — subjects with gastrointestinal disorders (human; oral plus intravenous microtracer, dose not given): 33.3%

For quick reference, copied from above:
CC(C)(C(=O)N1CCOc2c(C#N)cncc2C1)C(F)F — subjects with adverse event (item: conjunctival hyperaemia; human; oral, 10 mg once daily, 14 days, multiple ascending dose): 0%
